{"data": "Results of several laboratories", "note": "Numbered parts are unrelated; each lists some results of a single study. Values joined by “and” are separate records of one study, mostly repeats; a detail may differ.", "UniProt P29317, sequence (whole entry, looked up)": "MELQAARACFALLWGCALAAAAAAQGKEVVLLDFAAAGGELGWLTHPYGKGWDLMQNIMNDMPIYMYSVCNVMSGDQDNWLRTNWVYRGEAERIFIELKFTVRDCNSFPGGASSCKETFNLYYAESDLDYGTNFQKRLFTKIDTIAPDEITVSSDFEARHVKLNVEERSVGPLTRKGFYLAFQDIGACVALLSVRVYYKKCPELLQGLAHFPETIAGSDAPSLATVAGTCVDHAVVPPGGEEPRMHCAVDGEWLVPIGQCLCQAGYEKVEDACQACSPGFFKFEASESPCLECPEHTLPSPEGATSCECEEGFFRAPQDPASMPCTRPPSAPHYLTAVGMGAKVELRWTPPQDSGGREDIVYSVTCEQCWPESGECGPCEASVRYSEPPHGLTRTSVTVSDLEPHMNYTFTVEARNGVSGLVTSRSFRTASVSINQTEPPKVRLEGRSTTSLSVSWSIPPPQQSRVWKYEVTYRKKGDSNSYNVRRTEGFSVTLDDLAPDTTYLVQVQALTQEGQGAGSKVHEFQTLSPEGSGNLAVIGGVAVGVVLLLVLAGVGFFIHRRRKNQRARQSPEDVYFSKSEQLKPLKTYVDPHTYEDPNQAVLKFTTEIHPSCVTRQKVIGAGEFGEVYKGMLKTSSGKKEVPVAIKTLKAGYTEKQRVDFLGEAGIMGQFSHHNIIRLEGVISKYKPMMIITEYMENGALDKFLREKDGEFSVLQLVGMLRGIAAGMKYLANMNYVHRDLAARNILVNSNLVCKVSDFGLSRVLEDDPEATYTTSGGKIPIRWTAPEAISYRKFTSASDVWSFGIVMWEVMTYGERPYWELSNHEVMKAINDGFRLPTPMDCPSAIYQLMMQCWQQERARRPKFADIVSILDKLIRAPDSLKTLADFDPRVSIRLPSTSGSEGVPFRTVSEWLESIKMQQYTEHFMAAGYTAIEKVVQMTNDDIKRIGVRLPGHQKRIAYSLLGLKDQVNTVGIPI", "UniProt P04629, sequence (whole entry, looked up)": "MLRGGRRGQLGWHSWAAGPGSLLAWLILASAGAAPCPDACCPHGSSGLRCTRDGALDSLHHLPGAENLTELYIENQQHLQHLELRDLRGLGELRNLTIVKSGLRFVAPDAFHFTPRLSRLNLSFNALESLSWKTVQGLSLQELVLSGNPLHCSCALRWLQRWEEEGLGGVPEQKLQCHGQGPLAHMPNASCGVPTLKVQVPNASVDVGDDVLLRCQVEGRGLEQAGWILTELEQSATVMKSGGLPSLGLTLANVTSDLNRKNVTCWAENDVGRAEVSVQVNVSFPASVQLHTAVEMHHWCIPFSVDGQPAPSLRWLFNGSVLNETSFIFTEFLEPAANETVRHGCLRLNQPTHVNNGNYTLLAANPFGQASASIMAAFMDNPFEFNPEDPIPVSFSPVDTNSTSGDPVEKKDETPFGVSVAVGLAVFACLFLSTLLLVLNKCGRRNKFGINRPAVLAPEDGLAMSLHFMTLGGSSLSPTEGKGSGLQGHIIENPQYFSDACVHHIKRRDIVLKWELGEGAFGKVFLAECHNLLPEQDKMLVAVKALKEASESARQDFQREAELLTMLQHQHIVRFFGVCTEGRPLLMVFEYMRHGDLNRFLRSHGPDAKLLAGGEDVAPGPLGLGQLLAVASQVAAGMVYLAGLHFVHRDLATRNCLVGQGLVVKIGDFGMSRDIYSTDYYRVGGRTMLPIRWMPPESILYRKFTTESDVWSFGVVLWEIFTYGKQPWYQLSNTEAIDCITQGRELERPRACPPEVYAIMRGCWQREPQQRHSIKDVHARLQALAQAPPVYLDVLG"}
{"data": "Sample 1", "read-out": "AlphaScreen signal", "method": "AlphaScreen counter screen", "medium": "His6 peptide without bromodomain", "concentration": "50 µM", "notes": "assay interference check"}
{"SMILES": "COc1ccc(-c2[nH]c3ncccc3c2CN2CCOCC2)cc1", "inhibition [%]": 11.3}
{"SMILES": "Nc1cc(C(F)(F)F)c(-c2cc(N3CCOCC3)nc(N3CCOCC3)n2)cn1", "inhibition [%]": 24.1}
{"SMILES": "c1cncc(-c2[nH]c3ncccc3c2CN2CCOCC2)c1", "inhibition [%]": 2.45}
{"SMILES": "O=C1NC(=O)C(=Cc2ccc(-c3ccc(Cl)c(Cl)c3)o2)S1", "inhibition [%]": 3.45}
{"SMILES": "CCc1cc(Nc2nccc(-c3c(-c4ccc(OC)c(C(=O)Nc5c(F)cccc5F)c4)nc4ccccn34)n2)c(OC)cc1N1CCC(N2CCN(S(C)(=O)=O)CC2)CC1", "inhibition [%]": 32.2}
{"SMILES": "Nc1[nH]nc2nnc(-c3c(-c4ccccc4)nn4ccccc34)cc12", "inhibition [%]": 18.9}
{"data": "Sample 2", "Compound": "O=C(O)[C@@H]1[C@@H](Cn2nnc3ccccc3c2=O)CC[C@H]1C(=O)c1ccc(OCCC2CCOCC2)cc1", "concentration": "1 µM"}
{"target": "Serine/threonine-protein kinase DCLK1 (DCLK1, Homo sapiens, UniProt O15075)", "test": "cell-free assay, competition with immobilised ligand", "remaining binding [%]": 100}
{"target": "Cyclin-dependent kinase 4, with cyclin D1 (CDK4, Homo sapiens, UniProt P11802)", "test": "cell-free assay, competition with immobilised ligand", "remaining binding [%]": 96}
{"target": "AP2-associated protein kinase 1 (AAK1, Homo sapiens, UniProt Q2M2I8)", "test": "binding", "remaining binding [%]": 100}
{"target": "Calcium/calmodulin-dependent protein kinase type 1B (PNCK, Homo sapiens, UniProt Q6P2M8)", "test": "cell-free assay, competition with immobilised ligand", "remaining binding [%]": 67}
{"target": "Cyclin-G-associated kinase (GAK, Homo sapiens, UniProt O14976)", "test": "cell-free assay, competition with immobilised ligand", "remaining binding [%]": 91}
{"target": "Cyclin-dependent kinase 11A (CDK11A, Homo sapiens, UniProt Q9UQ88)", "test": "binding, competition with immobilised ligand", "remaining binding [%]": 91}
{"target": "Cyclin-dependent kinase-like 5 (CDKL5, Homo sapiens, UniProt O76039)", "test": "binding, competition with immobilised ligand", "remaining binding [%]": 96}
{"target": "Epithelial discoidin domain-containing receptor 1 (DDR1, Homo sapiens, UniProt Q08345)", "test": "cell-free assay, competition with immobilised ligand", "remaining binding [%]": 100}
{"target": "Mitogen-activated protein kinase kinase kinase kinase 4 (MAP4K4, Homo sapiens, UniProt O95819)", "test": "cell-free assay, competition with immobilised ligand", "remaining binding [%]": 93}
{"target": "Ephrin type-A receptor 2 (EPHA2, Homo sapiens, UniProt P29317)", "test": "cell-free assay, competition with immobilised ligand", "remaining binding [%]": 100}
{"target": "Tyrosine-protein kinase Lyn (LYN, Homo sapiens, UniProt P07948)", "test": "cell-free assay, competition with immobilised ligand", "remaining binding [%]": 97}
{"target": "Proto-oncogene tyrosine-protein kinase Src (SRC, Homo sapiens, UniProt P12931)", "test": "cell-free assay, competition with immobilised ligand", "remaining binding [%]": 89}
{"target": "Non-receptor tyrosine-protein kinase TNK1 (TNK1, Homo sapiens, UniProt Q13470)", "test": "cell-free assay, competition with immobilised ligand", "remaining binding [%]": 100}
{"target": "Tyrosine-protein kinase receptor UFO (AXL, Homo sapiens, UniProt P30530)", "test": "cell-free assay, competition with immobilised ligand", "remaining binding [%]": 100}
{"target": "High affinity nerve growth factor receptor (NTRK1, Homo sapiens, UniProt P04629)", "test": "cell-free assay, competition with immobilised ligand", "remaining binding [%]": 86}
{"target": "Serine/threonine-protein kinase TNNI3K (TNNI3K, Homo sapiens, UniProt Q59H18)", "test": "cell-free assay, competition with immobilised ligand", "remaining binding [%]": 94}
{"target": "Serine/threonine-protein kinase 4 (STK4, Homo sapiens, UniProt Q13043)", "test": "cell-free assay, competition with immobilised ligand", "remaining binding [%]": 98}
{"data": "Sample 3", "target": "Calcium/calmodulin-dependent protein kinase type II subunit alpha (CAMK2A, Homo sapiens, UniProt Q9UQM7)", "read-out": "enzyme activity", "mode": "inhibitor", "concentration": "10 µM", "UniProt Q9UQM7, sequence (whole entry, looked up)": "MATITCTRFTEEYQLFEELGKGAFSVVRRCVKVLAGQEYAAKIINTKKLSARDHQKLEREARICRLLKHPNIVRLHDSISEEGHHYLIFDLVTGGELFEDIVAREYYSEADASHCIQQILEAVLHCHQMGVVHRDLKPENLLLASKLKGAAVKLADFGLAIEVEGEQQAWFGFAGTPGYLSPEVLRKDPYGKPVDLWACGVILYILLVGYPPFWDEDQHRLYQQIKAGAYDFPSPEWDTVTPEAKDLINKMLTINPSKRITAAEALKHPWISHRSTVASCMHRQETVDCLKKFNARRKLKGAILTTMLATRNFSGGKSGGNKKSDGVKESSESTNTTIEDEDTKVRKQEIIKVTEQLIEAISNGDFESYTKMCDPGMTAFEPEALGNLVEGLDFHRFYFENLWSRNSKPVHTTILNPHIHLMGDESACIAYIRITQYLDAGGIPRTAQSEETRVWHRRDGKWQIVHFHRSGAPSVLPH"}
{"Compound": "O=C(O)CNCC(=O)O", "inhibition [%]": 2}
{"Compound": "O=C(O)[C@H](O)[C@@H](O)C(=O)O", "inhibition [%]": -0.32}
{"Compound": "C=C1CC[C@H]2O[C@]2(C)CC[C@@H]2[C@@H]1CC2(C)C", "inhibition [%]": -2}
{"Compound": "CO[C@@H]1[C@H](O)[C@@H](CO)O[C@H]1n1cnc2c(N)ncnc21", "inhibition [%]": 2}
{"data": "Sample 4", "species": "mouse", "medium": "microsomes or S9", "concentration": "2 µM", "time": "0.5 h"}
{"SMILES": "COc1cc(-c2nnc3ccc4ccccc4n23)cc(OC)c1OC", "remaining compound": "20.9%"}
{"SMILES": "CN(c1cccc(NC(=O)C(C)(C)C)c1)S(C)(=O)=O", "remaining compound": "61.5%"}
{"SMILES": "O=C(Nc1ccc(N2CCCS2(=O)=O)cc1)NC1CCCCC1", "remaining compound": "74.7%"}
{"SMILES": "CCn1ccc(C(=O)N2CCCN(S(C)(=O)=O)c3ccccc32)n1", "remaining compound": "11.7%"}
{"SMILES": "COc1ccccc1N(C)C(=O)c1cc(S(=O)(=O)N2CCOCC2)cn1C", "remaining compound": "18%"}
{"SMILES": "CCCS(=O)(=O)N1CCN(S(=O)(=O)c2ccc(NC(C)=O)cc2)CC1", "remaining compound": "0.19%"}
{"data": "Sample 5", "target": "DNA polymerase theta, ATPase domain (POLQ, Homo sapiens, UniProt O75417)", "read-out": "enzyme activity", "mode": "inhibitor", "concentration": "77 µM", "reference": "untreated", "UniProt O75417, sequence (whole entry, unmodified, looked up)": "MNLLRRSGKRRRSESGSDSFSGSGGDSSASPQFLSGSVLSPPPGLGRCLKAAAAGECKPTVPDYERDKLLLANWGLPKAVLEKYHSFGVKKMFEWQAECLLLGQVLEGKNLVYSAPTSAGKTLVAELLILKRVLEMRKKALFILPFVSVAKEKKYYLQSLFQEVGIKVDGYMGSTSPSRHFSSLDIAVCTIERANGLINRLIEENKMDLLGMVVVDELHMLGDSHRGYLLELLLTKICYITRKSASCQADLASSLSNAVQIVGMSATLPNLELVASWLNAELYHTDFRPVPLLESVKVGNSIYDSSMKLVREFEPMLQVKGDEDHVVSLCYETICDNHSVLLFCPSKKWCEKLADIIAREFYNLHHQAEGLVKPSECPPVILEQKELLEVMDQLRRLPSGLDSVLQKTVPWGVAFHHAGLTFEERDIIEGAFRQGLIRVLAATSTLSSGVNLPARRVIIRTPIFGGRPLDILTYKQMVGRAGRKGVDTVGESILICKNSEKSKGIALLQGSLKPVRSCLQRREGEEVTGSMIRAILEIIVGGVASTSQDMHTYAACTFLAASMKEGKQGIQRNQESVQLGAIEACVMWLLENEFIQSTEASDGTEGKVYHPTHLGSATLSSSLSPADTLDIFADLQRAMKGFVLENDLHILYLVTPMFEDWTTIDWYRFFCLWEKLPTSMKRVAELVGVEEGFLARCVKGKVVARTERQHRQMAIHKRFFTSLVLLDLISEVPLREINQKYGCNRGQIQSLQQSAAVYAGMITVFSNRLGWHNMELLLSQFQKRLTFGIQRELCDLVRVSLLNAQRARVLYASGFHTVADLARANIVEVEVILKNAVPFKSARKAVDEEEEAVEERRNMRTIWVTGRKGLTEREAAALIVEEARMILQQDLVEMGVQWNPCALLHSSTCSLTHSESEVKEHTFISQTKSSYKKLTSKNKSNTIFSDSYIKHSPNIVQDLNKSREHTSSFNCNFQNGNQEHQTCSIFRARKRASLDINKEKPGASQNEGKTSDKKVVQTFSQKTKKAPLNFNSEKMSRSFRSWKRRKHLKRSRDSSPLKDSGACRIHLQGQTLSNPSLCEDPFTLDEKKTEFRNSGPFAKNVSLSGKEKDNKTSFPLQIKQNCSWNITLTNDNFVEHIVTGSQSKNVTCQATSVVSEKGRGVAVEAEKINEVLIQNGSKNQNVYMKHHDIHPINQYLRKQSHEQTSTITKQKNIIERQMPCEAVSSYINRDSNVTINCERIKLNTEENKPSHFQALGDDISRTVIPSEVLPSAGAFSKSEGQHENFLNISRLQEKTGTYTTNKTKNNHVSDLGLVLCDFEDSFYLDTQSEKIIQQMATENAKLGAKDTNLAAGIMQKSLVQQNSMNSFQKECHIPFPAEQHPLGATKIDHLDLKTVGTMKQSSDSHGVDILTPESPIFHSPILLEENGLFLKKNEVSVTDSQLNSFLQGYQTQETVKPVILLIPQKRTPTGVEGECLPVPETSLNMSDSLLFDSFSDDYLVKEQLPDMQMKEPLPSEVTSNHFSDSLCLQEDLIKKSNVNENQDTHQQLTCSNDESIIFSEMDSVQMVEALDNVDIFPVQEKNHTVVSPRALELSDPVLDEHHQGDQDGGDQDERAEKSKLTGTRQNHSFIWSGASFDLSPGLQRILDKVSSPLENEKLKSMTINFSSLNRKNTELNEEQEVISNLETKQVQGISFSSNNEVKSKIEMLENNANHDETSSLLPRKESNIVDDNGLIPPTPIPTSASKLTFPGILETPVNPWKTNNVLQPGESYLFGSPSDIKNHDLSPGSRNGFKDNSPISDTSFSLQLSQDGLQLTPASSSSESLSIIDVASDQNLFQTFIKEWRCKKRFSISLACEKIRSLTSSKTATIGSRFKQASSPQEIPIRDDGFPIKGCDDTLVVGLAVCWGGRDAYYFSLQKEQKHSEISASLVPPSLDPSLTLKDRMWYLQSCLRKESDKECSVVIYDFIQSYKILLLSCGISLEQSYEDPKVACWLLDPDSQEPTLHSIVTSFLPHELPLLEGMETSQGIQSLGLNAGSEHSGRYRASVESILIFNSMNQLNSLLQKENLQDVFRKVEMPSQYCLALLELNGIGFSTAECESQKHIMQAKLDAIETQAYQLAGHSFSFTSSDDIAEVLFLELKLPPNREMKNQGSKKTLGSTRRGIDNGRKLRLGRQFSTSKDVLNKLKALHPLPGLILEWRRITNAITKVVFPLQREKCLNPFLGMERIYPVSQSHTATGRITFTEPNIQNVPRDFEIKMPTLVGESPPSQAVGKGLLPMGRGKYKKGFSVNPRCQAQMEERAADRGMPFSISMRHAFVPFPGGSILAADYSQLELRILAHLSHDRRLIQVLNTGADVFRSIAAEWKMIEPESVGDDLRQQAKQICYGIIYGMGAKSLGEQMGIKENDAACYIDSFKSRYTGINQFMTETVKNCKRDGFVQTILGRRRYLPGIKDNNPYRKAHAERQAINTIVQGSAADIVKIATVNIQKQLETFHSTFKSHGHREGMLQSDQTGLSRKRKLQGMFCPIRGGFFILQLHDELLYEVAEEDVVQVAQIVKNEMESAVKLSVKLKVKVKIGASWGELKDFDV"}
{"Structure (SMILES)": "Cc1cn[nH]c1", "remaining activity": "95%"}
{"Structure (SMILES)": "O=c1[nH]c(=O)n([C@H]2C[C@H](O)[C@@H](CO)O2)cc1F", "remaining activity": "97.2%"}
{"Structure (SMILES)": "Cc1cc2c(F)c(Oc3ncnn4cc(OC[C@@H](C)O)c(C)c34)ccc2[nH]1", "remaining activity": "103%"}
{"Structure (SMILES)": "N#CC1(c2ccc(NC(=O)c3cccnc3NCc3ccncc3)cc2)CCCC1", "remaining activity": "103%"}
{"Structure (SMILES)": "C/C(=N\\NC(=S)N1CCC1)c1ccccn1", "remaining activity": "82.3%"}
{"Structure (SMILES)": "Nc1nc2c(ncn2COCCO)c(=O)[nH]1", "remaining activity": "101% and 102% and 95.7%"}
{"note": "Excerpt of the above (sample 5):"}
{"Structure (SMILES)": "C/C(=N\\NC(=S)N1CCC1)c1ccccn1", "remaining activity": "82.3%"}
{"Structure (SMILES)": "Cc1cn[nH]c1", "remaining activity": "95%"}
{"Structure (SMILES)": "O=c1[nH]c(=O)n([C@H]2C[C@H](O)[C@@H](CO)O2)cc1F", "remaining activity": "97.2%"}
{"Structure (SMILES)": "Cc1cc2c(F)c(Oc3ncnn4cc(OC[C@@H](C)O)c(C)c34)ccc2[nH]1", "remaining activity": "103%"}
{"Structure (SMILES)": "Nc1nc2c(ncn2COCCO)c(=O)[nH]1", "remaining activity": "101% and 102% and 95.7%"}
